Measurements of several laboratories.
Each numbered part is a random draw from the data of one study; scales do not carry over between parts.

Block 1
Target: Ras GTPase-activating protein-binding protein 1, full length (G3BP1, Homo sapiens, UniProt Q13283)
Chain of UniProt Q13283 (whole entry, looked up): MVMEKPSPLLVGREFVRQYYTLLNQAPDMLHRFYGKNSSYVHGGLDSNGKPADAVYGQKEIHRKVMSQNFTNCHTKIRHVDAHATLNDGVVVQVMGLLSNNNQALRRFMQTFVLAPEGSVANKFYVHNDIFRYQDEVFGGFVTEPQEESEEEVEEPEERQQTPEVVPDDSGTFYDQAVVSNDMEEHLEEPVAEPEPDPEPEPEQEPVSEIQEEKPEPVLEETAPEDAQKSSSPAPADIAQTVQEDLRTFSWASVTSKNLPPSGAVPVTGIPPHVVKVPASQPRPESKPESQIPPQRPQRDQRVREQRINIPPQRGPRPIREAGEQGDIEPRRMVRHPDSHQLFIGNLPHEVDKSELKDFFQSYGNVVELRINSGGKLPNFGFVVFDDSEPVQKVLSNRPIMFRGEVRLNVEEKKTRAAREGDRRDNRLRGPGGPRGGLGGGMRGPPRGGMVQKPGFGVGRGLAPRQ
Method: RNA Bind-n-Seq
Form: RNA
Sample: in vitro
Concentration: 200 nM
Notes: whole 134-nt RNA, ends assumed
With: 150 mM KCl
Reference: input library
Reading: higher = stronger binding
Measurement: log2 enrichment
All sequences stand within: GGGAGUUCUACAGUCCGACGAUC … UGGAAUUCUCGGGUGUCAAGG
GUCCUGUGCUACACAUCGUAUGUACCGAAUCGGGGUUUGGGGAAAGGGGUUUUUGGGGAAAGUAUUAUGUUACGCCGUUCGGAUCUGCAC: 0.433
GCAGGAAGUAAAAACAAAUGGAAAUGCUUCGGAAAGUGGCAGGGGUGGGGGUUGCUAAGGAAAGGGUGGGAUGGGAGUGGGUAAAGAGUU: 0.892
GUCCUGUGCUACACAUCGUAUGUACCGAAUCGGGGUUUGGGGAAAAAGGGGUUUGGGGAAAGUAUUAUGUUACGCCGUUCGGAUCUGCAC: 0.77
GCAGCAAGUAAAAACAAAUGGAAAUGCUUCGGAUAGUGGCAGGGGUGGGGGUUGCUAAGGAAAGGGUGGGAUGGGAGUGGGUAAAGAGUU: 0.674
UUCCUCAAGUCCUGUGCUACACAUCGUAUGUACCGAAUCGGAGGUGGUGGAAAGUAUUAUGUUACGCCGUUCGGAUCUGCACUUCCAGCA: -0.778
UGGGAGGUGGAUUUUGUUUAUUUUUUUAGCUCUUUUCCAGGGGUGGGAAUUUUUUUUUAAUAUGUGUCAUGAAUAAAGUUGUUUUUGAAA: 0.212
CACAGACAACACGCACCCACACAGACACAGAGGGAAGGGGUUGGGAUGGGGACAGGGUGCACAGCAGGGCGGGUUAGGACCCCAGCCCCU: 2.05
UGGGAGGUGGAUUUUGUUUAUUUUUUUAGCUCAUUUCCAGGGCUGGGAAUUUUUUUUUAAUAUGUGUCAUGAAUAAAGUUGUUUUUGAAA: -0.579
AGUCCUGUGCUACACAUCGUAUGUACCGAAUCGGGGAAAGGGGUGGGGUUUUUGGGGAAAGUAUUAUGUUACGCCGUUCGGAUCUGCACU: 0.499
ACCAUGCAGGUGGGCAUCUUUGGGAAGUGGGGCAAGGGGGGGAUAGGGAGGGGGGUAACACUUUGGGAACAAAAGGUCCCAGGUCGUUUC: 1.17
GUCCUGUGCUACACAUCGUAUGUACCGAAUCGGUUUUUUGGUUUUUUGGUUUUUUGGGAAAGUAUUAUGUUACGCCGUUCGGAUCUGCAC: -1.3
GUCCUGUGCUACACAUCGUAUGUACCGAAUCGGGAAAAAGGGAAAAAGGGAAAAAGGGGAAAGUAUUAUGUUACGCCGUUCGGAUCUGCA: -0.208
GCAGGAAGUAAAAACAAAUGGAAAUGCUUCGGAUAGUGCCAGGGGUGGGGGUUGCUAAGGAAAGGGUGGGAUGGGAGUGGGUAAAGAGUU: 1.05
CAAGUCCUGUGCUACACAUCGUAUGUACCGAAUCGGGGCCCGGGCCCGGGCCCGGGAAAGUAUUAUGUUACGCCGUUCGGAUCUGCACUU: -1.32

Block 2
Target: Histone acetyltransferase KAT6A, both winged helices, GST fusion (KAT6A, Homo sapiens, UniProt Q92794, residues 1-181)
Method: protein binding microarray
Form: double-stranded DNA, one strand shown
Sample: in vitro
Concentration: not given
Notes: 8-mer, flanks averaged, mean of 2 arrays, mostly near background
Reference: not given
Reading: higher = stronger binding
Measurement: E-score
Construct (chain): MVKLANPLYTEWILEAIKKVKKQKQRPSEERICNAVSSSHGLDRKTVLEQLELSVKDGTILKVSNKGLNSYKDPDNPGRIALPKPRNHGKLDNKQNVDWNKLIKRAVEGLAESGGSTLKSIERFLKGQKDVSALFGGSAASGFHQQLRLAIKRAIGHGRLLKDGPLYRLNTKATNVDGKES
TGAGCGCA: 0.111
GTCGCTTA: 0.14
TCCCGACA: 0.0777
TGAGTGAA: -0.162
GTAGGTGA: -0.055
GATTGGCC: -0.0183
ATAAGATG: -0.159
CTTCACAA: -0.194
CACGCCAC: -0.0159
GAGGGCAA: -0.095
AGCATTGG: -0.09
AGCACCCC: -0.0803
GAACCACC: -0.086
ACACTCCG: 0.0539
CGCTACAC: 0.135
CTCGGGTA: -0.00161

Block 3
Target: Interferon regulatory factor 7, full length, phosphomimetic (IRF7, Homo sapiens, UniProt Q92985, residues 1-503, S471D/S472D/S475D/S476D/S477D/S483D/S484D/S487D)
Method: protein-binding microarray
Form: double-stranded DNA, one strand shown
Sample: in vitro
Concentration: 2200 nM top
Notes: 60-bp whole probe
With: salmon DNA 0.4 mg/ml
Reference: random background probes
Reading: higher = stronger binding
Measurement: fitted relative affinity
All sequences stand within: GCCTAGCAC … GTCTTGATTCGCTTGACGCTGCTG
Construct (chain): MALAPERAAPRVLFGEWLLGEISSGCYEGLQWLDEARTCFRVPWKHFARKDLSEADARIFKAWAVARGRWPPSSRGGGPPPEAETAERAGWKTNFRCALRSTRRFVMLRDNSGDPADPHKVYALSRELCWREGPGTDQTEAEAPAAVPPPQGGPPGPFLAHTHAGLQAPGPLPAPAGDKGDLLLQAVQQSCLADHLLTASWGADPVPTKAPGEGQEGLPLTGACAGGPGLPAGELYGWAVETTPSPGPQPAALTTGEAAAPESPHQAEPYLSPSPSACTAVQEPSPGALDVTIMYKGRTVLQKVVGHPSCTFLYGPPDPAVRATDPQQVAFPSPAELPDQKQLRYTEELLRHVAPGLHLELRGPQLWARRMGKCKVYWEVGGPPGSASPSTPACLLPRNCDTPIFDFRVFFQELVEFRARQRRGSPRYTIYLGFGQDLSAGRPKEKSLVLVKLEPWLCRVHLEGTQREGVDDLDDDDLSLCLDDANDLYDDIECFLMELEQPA
TTAGGACTGGGATTGGGTTAGTGCTAG: -0.464 z-score
CACGGTATCCTTCTCCTGACGTGCTAG: 1.1 z-score
TTAGTACTGGGGTTTCGATTAGTGCTA: 2.56 z-score
TTAGGTCTCCTGTTCCTTTAGTGCTAG: 1.11 z-score
GACGGTTTCGGGTAACGGGACGTGCTA: 5.6 z-score
GAGGAACTGAGTCTCGAGACGTGCTAG: -0.351 z-score
TCATGTCTGGGATGTAATACTGTGCTA: 0.47 z-score
GAGGGTATCCTACTGCTGACGTGCTAG: -0.246 z-score
GACGATAACAGTTTCGAGACGTGCTAG: 2.96 z-score
TTAGATCTCAGTTTCGATTGGTGCTAG: 7.97 z-score
GACGATTTCAGTATCGGGACGTGCTAG: 0.858 z-score
ATAGGTATCCTACTGCTTTAGTGCTAG: 0.688 z-score
GACGGTAGCCTTTTCCTGACGTGCTAG: 0.5 z-score
TCAAATATTTACCTCTCACTGTGCTAG: 0.816 z-score
TTAGATTTCGGGACTGGATAAGTGCTA: 0.827 z-score
TTAGGATTCGACTATCGGTTAGTGCTA: 0.512 z-score
GACGATATCAGTTACGAGACGTGCTAG: 0.561 z-score
TTAGATATCGGGTTTCTATTAGTGCTA: 1.19 z-score
TAAGGTATCGGTATCGGTTAGTGCTAG: 0.876 z-score
GACGATATCAGTCTCGAGAAGTGCTAG: 0.222 z-score

Block 4
Organism: Saccharomyces cerevisiae
Read-out: cell growth
Method: competitive growth deep sequencing
Form: peptide
Notes: peptide tiling library
With: cyclin F-Cln2 fusion
Reading: direction not given
Measurement: enrichment score
GFGFLLFICKLTF: 1.31
ARKRLELGNLGNPQ: 1.68
LRRQLSFSED: 2.85
RKLHFEDEVT: 3.55
GAEELEDLVHFSVSEL: 1.97
KVKRRLDLDIDGLQKE: 3.16
PPKPLKKLRFDIEGSD: 0.928
NFETPEAETPIRSPFK: 0.27
SCCKRKLVVGNGPEGP: 0.51
RKLDLEGIGR: 3.07
DWDTVERQEEEAPSWD: 1.68
VSRNLRSSLKSSLHTL: -1.38
LRRKLFLDGNGSIS: 1.81
PPTFLSTGEIHAFLSS: -0.252
TTTTSPRTPPPLTVQD: 0.536
NNIRKALSFDNRGEEH: 0.489

Excerpt of the above (block 4):
SCCKRKLVVGNGPEGP: 0.51
NNIRKALSFDNRGEEH: 0.489
VSRNLRSSLKSSLHTL: -1.38
ARKRLELGNLGNPQ: 1.68
LRRQLSFSED: 2.85
RKLDLEGIGR: 3.07
DWDTVERQEEEAPSWD: 1.68
PPTFLSTGEIHAFLSS: -0.252
